Experimental data gathered from unrelated publications.
Values joined by “and” are separate records of one study, mostly repeats; a detail may differ. ± marks the error that the study gave.
TOP2A: DNA topoisomerase 2-alpha (TOP2A, Homo sapiens, UniProt P11388)
UCHL1: Ubiquitin carboxyl-terminal hydrolase isozyme L1 (UCHL1, Homo sapiens, UniProt P09936)
T1: RNA aptamer U10C/A45G, 5'-triphosphate, 2',3'-cyclic phosphate; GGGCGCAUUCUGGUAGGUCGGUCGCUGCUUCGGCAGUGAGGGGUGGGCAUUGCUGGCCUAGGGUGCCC
T2: RNA aptamer (Homo sapiens); chain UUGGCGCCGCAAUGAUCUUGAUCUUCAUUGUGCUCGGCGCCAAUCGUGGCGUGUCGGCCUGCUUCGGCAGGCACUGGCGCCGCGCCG; chain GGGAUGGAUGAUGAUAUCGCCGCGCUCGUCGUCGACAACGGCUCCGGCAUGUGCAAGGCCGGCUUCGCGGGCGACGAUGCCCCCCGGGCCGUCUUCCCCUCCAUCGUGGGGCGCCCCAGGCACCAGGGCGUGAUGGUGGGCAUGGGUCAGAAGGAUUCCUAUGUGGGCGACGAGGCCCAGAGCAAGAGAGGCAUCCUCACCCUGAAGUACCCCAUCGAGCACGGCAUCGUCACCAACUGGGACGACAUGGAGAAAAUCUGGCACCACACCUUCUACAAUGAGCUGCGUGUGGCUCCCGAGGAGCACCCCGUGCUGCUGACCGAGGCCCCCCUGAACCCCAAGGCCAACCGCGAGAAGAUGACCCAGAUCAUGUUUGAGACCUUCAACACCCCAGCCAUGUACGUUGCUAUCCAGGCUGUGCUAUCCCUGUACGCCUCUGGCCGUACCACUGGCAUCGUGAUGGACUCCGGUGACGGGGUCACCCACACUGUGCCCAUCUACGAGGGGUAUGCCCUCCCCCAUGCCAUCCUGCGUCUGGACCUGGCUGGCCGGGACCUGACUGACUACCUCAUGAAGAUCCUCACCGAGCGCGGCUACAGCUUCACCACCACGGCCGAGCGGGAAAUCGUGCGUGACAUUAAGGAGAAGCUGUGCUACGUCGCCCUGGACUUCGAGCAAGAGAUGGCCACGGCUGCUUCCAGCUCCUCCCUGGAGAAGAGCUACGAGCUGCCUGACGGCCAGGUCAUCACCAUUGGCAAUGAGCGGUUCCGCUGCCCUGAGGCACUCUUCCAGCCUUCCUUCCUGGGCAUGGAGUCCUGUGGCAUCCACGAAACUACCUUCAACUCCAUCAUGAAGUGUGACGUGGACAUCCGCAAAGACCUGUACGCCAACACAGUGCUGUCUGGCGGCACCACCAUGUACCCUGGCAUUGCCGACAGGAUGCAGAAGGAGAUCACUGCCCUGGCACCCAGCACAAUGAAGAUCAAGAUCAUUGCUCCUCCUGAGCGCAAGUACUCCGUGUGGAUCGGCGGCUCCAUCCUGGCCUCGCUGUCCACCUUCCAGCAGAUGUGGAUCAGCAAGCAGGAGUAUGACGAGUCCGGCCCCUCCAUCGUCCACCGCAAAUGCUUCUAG

Structure (SMILES) | target | assay | system | setting | how to read | measurement | value
COc1ccc(S(=O)(=O)n2nc(SCc3ccc(Cl)cc3)nc2N)cc1 | LYPLAL1 (Homo sapiens, UniProt Q5VWZ2) | enzyme activity, activator, gel-based ABPP | purified protein | concentration not given, added: FP-rhodamine | baseline: DMSO | probe labeling increase | 2.2 fold
Nc1ncnc2c1ncn2[C@@H]1O[C@H](COP(=O)(O)CP(=O)(O)OP(=O)(O)O)[C@@H](O)[C@H]1O | P2X purinoceptor 1 (P2RX1, Homo sapiens, UniProt P51575, R292A) | saturation binding | HEK293 | 52 nM | – | specific binding | 97 CCPM and 80 CCPM
O=c1nc(SCc2cc(F)cc(C(F)(F)F)c2)nc(SCc2ccc3nc(OCCN4CCOCC4)ccc3c2)[nH]1 | TOP2A | DNA cleavage | – | 7.8 µM | – | mean linear DNA | 0%
N#Cc1c(NC(=O)C=CC(=O)O)sc2c1CCC2 | UCHL1 | covalent, intact protein LC-MS | – | 12.5 µM | – | labelling | 28.3%
CC(=O)N[C@H](C(=O)N1C[C@H](O)C[C@H]1C(=O)NCc1ccc(-c2scnc2C)cc1)C(C)(C)SCCCCCCNC(=O)C[C@@H]1N=C(c2ccc(Cl)cc2)c2c(sc(C)c2C)-n2c(C)nnc21 | BRD2/VHL, BD2; with VCB (Homo sapiens, UniProt P25440+P40337) | ternary complex binding, ITC | – | 25 °C, added: VHL-ElonginB-ElonginC titrated into compound:PROTAC:Brd2^BD2 complex | – | ΔG | -9.7 ± 0.05 kcal/mol
Nc1ncnc2c1ncn2[C@@H]1O[C@H](COP(=O)(O)OP(=O)(O)OP(=O)(O)O)[C@@H](O)[C@H]1O | PAK1 (Homo sapiens, UniProt Q13153) | substrate | – | – | – | Km | 0.0044 mM
CCCS(=O)(=O)Nc1ccc(F)c(C(=O)c2cn(C(=O)OCc3cc(P(=O)(O)O)ccc3OP(=O)(O)O)c3ncc(-c4ccc(Cl)cc4)cc23)c1F | Alkaline phosphatase, placental type (Homo sapiens, UniProt P05187) | substrate | – | 100 µM, pH 7.6, 37 °C | – | drug formation rate | 1.15 pmol/min
C#CCCC1(CC[C@H](NC(=O)NCCCCCCNC(=O)NCCN)C(N)=O)N=N1 | FKBP1A (Homo sapiens, UniProt P62942) | photoaffinity labeling, in-gel fluorescence, refers to: Alexa Fluor 647 click label | – | 10 µM, UV irradiation 365 nm | higher = more labeling | probe labeling fluorescence | 1910 a.u.
Cc1cc(Oc2ncccc2CN2CCN(c3c(C)cccc3C)CC2)ccc1-c1c(C)c(=O)[nH]c(=O)n1C | ADRA2C (Homo sapiens, UniProt P18825) | binding, radioligand binding | – | added: [3H]rauwolscine | baseline: Ki alpha2A over Ki alpha2C | selectivity ratio | 4
Nc1nc2c(ncn2[C@@H]2O[C@@H]3COP(=O)(O)O[C@H]4[C@@H](O)[C@H](n5cnc6c(=O)[nH]c(N)nc65)O[C@@H]4COP(=O)(O)O[C@H]3[C@H]2O)c(=O)[nH]1 | Cell cycle histidine kinase CckA, CA domain (Caulobacter vibrioides, UniProt Q9X688) | binding, ITC | – | added: ADP 5 mM | – | ΔH | 2.22 ± 0.11 kcal/mol
Nc1nc2c(ncn2[C@@H]2O[C@H](COP(=O)(O)OP(=O)(O)OP(=O)(O)O)[C@@H](O)[C@H]2O)c(=O)[nH]1 | T1, RNA aptamer U10C/A45G, 5'-triphosphate, 2',3'-cyclic phosphate | ITC | – | – | – | Kd | 361 nM
O=c1nc(SCc2cc(F)cc(C(F)(F)F)c2)nc(SCc2ccc3nc(Cl)ccc3c2)[nH]1 | TOP2B (Homo sapiens, UniProt Q02880) | decatenation | – | 125 µM | – | mean decatenated DNA | 0.71%
NCCCS(=O)(=O)O | SLC6A6 (Homo sapiens, UniProt P31641, G62A) | binding, microscale thermophoresis | – | 1 mM, room temperature, added: 50 nM labelled protein | higher = more binding | normalised MST signal | -0.00198
COC(=O)Nc1cccc(NS(=O)(=O)c2cc(Cl)cc(Cl)c2O)c1C | malate dehydrogenase | enzyme activity, inhibitor | – | 200 µM, pH 7.0, 1% DMSO, aggregation counter-screen | – | remaining activity | 84%
COCc1noc(CN2CCN(C(=O)C(C)Cl)CC2)n1 (stereo not shown) | UCHL1 | covalent, intact protein LC-MS | – | 12.5 µM | – | labelling | 18.3%
O=C(O)c1occc1S(=O)(=O)NCc1ccc(-c2ccccc2)s1 | malate dehydrogenase | enzyme activity, inhibitor | – | 200 µM, pH 7.0, 1% DMSO, aggregation counter-screen | – | remaining activity | 79%
CN(CCO)c1cc2sc(/C=C(\C#N)c3ccc(C#N)cc3)cc2s1 | T2, RNA aptamer (Homo sapiens) | fluorescence activation | – | – | – | binding | binds

Structure (SMILES) | target | assay | system | setting | how to read | measurement | value
CC(=O)N[C@@H](CC(C)C)C(=O)N[C@@H](CC(=O)O)C(=O)N1CCC[C@H]1C(=O)N1CCC[C@H]1C(=O)N[C@@H](CC(C)C)C(=O)N[C@@H](Cc1c[nH]cn1)C(=O)N[C@@H](CO)C(=O)N[C@H](C(=O)N[C@@H](C)C(N)=O)[C@@H](C)OP(=O)(O)O | PLK1 (Homo sapiens, UniProt P53350) | polo-box domain binding, isothermal titration calorimetry | – | concentration not given, 25 °C | – | binding stoichiometry | 1.04
O=C(NC1CCC1)c1ccc2nc(-c3cccc(NS(=O)(=O)NCCN4CCCCC4)c3)cn2c1 | PIK3CA (Homo sapiens, UniProt P42336, Q546K) | enzyme activity | – | 10 µM | – | remaining activity | 49%
CC[C@H]1OC(=O)[C@H](C)[C@@H](O[C@H]2C[C@@](C)(OC)[C@@H](O)[C@H](C)O2)[C@H](C)[C@@H](O[C@@H]2O[C@H](C)C[C@H](N(C)C)[C@H]2O)[C@](C)(O)C[C@@H](C)C(=O)[C@H](C)[C@@H](O)[C@]1(C)O | uncharacterized protein (Saccharopolyspora erythraea, UniProt A4F7P9) | – | – | concentration not given, pH 7.6, 20 °C, added: p-nitrophenyl-β-D-glucopyranoside | – | apparent Km | 7.27 ± 0.58 mM
CN(C)CCOC1=Cc2ccccc2Sc2ccc(Cl)cc21 | Voltage-dependent P/Q-type calcium channel subunit alpha-1A (Homo sapiens, UniProt O00555) | ion current, antagonist | HEK293 | 3 µM | – | inhibition | 35%
N#CC(=Cc1cccc(F)c1)C(=O)Nc1ccc(SC(F)F)cc1 | UCHL1 | covalent, intact protein LC-MS | – | 12.5 µM | – | labelling | 18.1%
Nc1ncnc2c1ncn2[C@@H]1O[C@H](COP(=O)(O)OP(=O)(O)O)[C@@H](O)[C@H]1O | GUK1 (Homo sapiens, UniProt Q16774) | binding, isothermal titration calorimetry | – | molar ratio 3.506, fitted curve | – | ΔH | -0.111 kcal/mol
O=c1nc(SCc2cc(F)cc(C(F)(F)F)c2)nc(SCc2ccc3sccc3c2)[nH]1 | TOP2A | ATPase activity | – | 1.95 µM, added: ATP 0.05 mM | – | ATP hydrolysis rate | 0.55 µM/min and 0.643 µM/min
N#CC(=Cc1cccnc1)C(=O)Nc1ccc(F)cc1 | UCHL1 | covalent, intact protein LC-MS | – | 12.5 µM | – | labelling | 23.5%
Cc1cc(-c2ccnc3[nH]cc(F)c23)cc(F)c1[C@@]1(O)[C@H](C)CN(C(=O)CN)C[C@@H]1C | LATS1 (Homo sapiens, UniProt O95835) | ATP/ADP probe binding, KiNativ | HEK293T lysate | 0.1 µM, Lys1 peptide ALYATKTLR | – | probe labelling inhibition | 21%
O=C(CCCc1ccccc1)C(=O)NCCc1ccc(Oc2ccc(C(F)(F)F)cn2)cc1 | Pyruvate kinase PKM (PKM, Homo sapiens, UniProt P14618) | inhibitor, FP-biotin chemoproteomics, refers to: KPYM | HepG2 | concentration not given | baseline: DMSO, lower = stronger inhibition | probe-enriched protein abundance | 102000 a.u.
Oc1ccc(/C=C/c2cc(O)cc(O)c2)cc1 | O-methyltransferase (Sorghum bicolor, UniProt A0A1B6PFV1) | ITC | – | concentration not given, exothermic site, two-site model, added: SFG | – | binding stoichiometry | 0.39
c1coc(-c2n[nH]cc2-c2ccnc3ccccc23)c1 | Serine/threonine-protein kinase BUR1 (CRK1, Candida albicans, UniProt Q9Y7W4) | kinase binding, MIB/MS competition | Candida albicans lysate | 1 µM | baseline: DMSO, negative = stronger binding | log2 fold change | 0.13
O=C(O)c1ccc(O)cc1 | BEST1 (Homo sapiens, UniProt O76090) | whole-cell patch clamp | HEK293 transiently expressing channel | concentration not given, membrane potential -100 mV | – | current density | -23.9 pA/pF and -36.8 pA/pF and -23.2 pA/pF and -33.3 pA/pF and -42.7 pA/pF and -40.9 pA/pF
N#CC(=Cc1c(F)cccc1F)C(=O)NCCc1ccccc1 | UCHL1 | covalent, intact protein LC-MS | – | 12.5 µM | – | labelling | 20.7%
O=c1cc(-c2ccc([N+](=O)[O-])cc2)[nH]c2c(-c3ccc(Cl)cc3)c(Cc3ccccc3)nn12 | Glyoxylate reductase/hydroxypyruvate reductase (Homo sapiens, UniProt Q9UBQ7) | thermal stability, binder, thermal proteome profiling | RD, cell lysate | 50 µM, 0.5% DMSO | baseline: DMSO vehicle | melting temperature shift | 4.7 °C
CC(=O)Nc1ccc(C=C(C#N)C(=O)Nc2c(C)cc(C)cc2C)cc1 | UCHL1 | covalent, intact protein LC-MS | – | 12.5 µM | – | labelling | 14.1%
CCCCCCCC(=O)c1cc(OC)c(OC)c(OC)c1CC(=O)OCC | Vitamin D3 receptor (VDR, Homo sapiens, UniProt P11473) | reporter gene, Gal4 hybrid reporter | – | 10 µM | baseline: vehicle | activation | 1.17 fold

For quick reference, copied from above:
Structure (SMILES) | target | assay | system | setting | how to read | measurement | value
CC(=O)N[C@@H](CC(C)C)C(=O)N[C@@H](CC(=O)O)C(=O)N1CCC[C@H]1C(=O)N1CCC[C@H]1C(=O)N[C@@H](CC(C)C)C(=O)N[C@@H](Cc1c[nH]cn1)C(=O)N[C@@H](CO)C(=O)N[C@H](C(=O)N[C@@H](C)C(N)=O)[C@@H](C)OP(=O)(O)O | PLK1 (Homo sapiens, UniProt P53350) | polo-box domain binding, isothermal titration calorimetry | – | concentration not given, 25 °C | – | binding stoichiometry | 1.04
O=C(NC1CCC1)c1ccc2nc(-c3cccc(NS(=O)(=O)NCCN4CCCCC4)c3)cn2c1 | PIK3CA (Homo sapiens, UniProt P42336, Q546K) | enzyme activity | – | 10 µM | – | remaining activity | 49%
CC[C@H]1OC(=O)[C@H](C)[C@@H](O[C@H]2C[C@@](C)(OC)[C@@H](O)[C@H](C)O2)[C@H](C)[C@@H](O[C@@H]2O[C@H](C)C[C@H](N(C)C)[C@H]2O)[C@](C)(O)C[C@@H](C)C(=O)[C@H](C)[C@@H](O)[C@]1(C)O | uncharacterized protein (Saccharopolyspora erythraea, UniProt A4F7P9) | – | – | concentration not given, pH 7.6, 20 °C, added: p-nitrophenyl-β-D-glucopyranoside | – | apparent Km | 7.27 ± 0.58 mM
CN(C)CCOC1=Cc2ccccc2Sc2ccc(Cl)cc21 | Voltage-dependent P/Q-type calcium channel subunit alpha-1A (Homo sapiens, UniProt O00555) | ion current, antagonist | HEK293 | 3 µM | – | inhibition | 35%
N#CC(=Cc1cccc(F)c1)C(=O)Nc1ccc(SC(F)F)cc1 | UCHL1 | covalent, intact protein LC-MS | – | 12.5 µM | – | labelling | 18.1%
